Results collected from several papers.
A part holds a random share of what one study measured.

Block 1
Target: RING finger protein unkempt homolog, zinc fingers 1-6, SBP tag (UNK, Homo sapiens, UniProt Q9C0B0, residues 30-357)
UniProt Q9C0B0, sequence (30-357, looked up): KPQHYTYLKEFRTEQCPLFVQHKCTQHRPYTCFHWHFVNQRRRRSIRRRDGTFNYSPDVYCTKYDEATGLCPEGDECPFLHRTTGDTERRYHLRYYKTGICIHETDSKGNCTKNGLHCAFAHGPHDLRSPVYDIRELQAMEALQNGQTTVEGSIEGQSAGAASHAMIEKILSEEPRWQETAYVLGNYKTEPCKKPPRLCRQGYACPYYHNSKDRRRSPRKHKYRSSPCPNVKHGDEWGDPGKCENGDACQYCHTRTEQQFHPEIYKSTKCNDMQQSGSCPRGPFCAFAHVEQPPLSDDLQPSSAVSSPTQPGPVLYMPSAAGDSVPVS
Technique: RNA Bind-n-Seq
Molecule type: RNA
Medium: in vitro
Tested at: 100 nM
Notes: RNA with constant flanks, vertebrate orthologous sites, ends assumed
Relative to: input RNA pool
Direction: higher = stronger binding
Endpoint: bound/input enrichment
Shared flanks, not repeated: GGGAGUUCUACAGUCCGACGAUC … CAACAGAGGAUUGAGCAUCA
Strand = AGAGGAACAGCAUAGGCUGUUUGAGCUUUGGGAAAAUGAGCUUUGCUUUUUAUAUUUAAAUAGGAUACUUUUAUAUGAUGGGUGCUCUGAGUGUGAAUGCAGCAGGCUGUCCAUUUCAGA; result = 0.89 ratio
Strand = UGGUAUUUUCAAACAAUAGGAAGCGUCCUGGUUUGUUCGUUUUUUUUUUUUUUCUUACAGUUUCGUAUCUGGUUUCUACAUGGAAGACUAAACUCAUGCUUAGAGUUAAAUGUGGUCUUU; result = 0.53 ratio
Strand = AUUAAAUAUGUAUCAGAUGCUGGAUGUAACAUUGAACCAUCAUUUAUAAUAGAUGUUAAUUUGUUAUACUUAAGCUACAAAUAGGUUUCCUUAAACCAGAGAUACACUGCCCUUGUCUGA; result = 0.202 ratio
Strand = UCCAGUCUUAUACUUAUGGUUGGCCUCAAGUCUAUUGCAUUUAUGACAAUGUAUUAUAUCUAGUUAAUUUGAGUUUAAUAUUUUUUAUUAGCCUGUAAAUAAAGAUGGCAUAUUCUACAU; result = 0.164 ratio
Strand = CAACGCCAUGGUGGAAGGCUCCGAGCUCAAGAAGGUCCGGUCCAACUCCAGGGUGUACCACCGCUACUUCCUCCUGGAUGCUGACAUGCAGUCUCUGCGCUGGGAGCCUUCCAAAAAGGA; result = 0.275 ratio
Strand = GAACUAAAGGAGUUAGCAUCUUUAUUUUUGUAUCAAAGAUAAAGGUUAUUUUGAAAUUAUUAGGAUUUUUUUAUACAACUCUGGAAUCUGUUGCUUUUGUAAACAAAUUCUUUGAUCUUA; result = 1.27 ratio
Strand = AUUUCCCGUUUACCCAGUGACACUUUUUACUGAUUUCAUUUCCAUGCAUCUCUUUAAACUUGCCAGUUUUUACCCUCUACUGCACCCUGAAAAGACUGAGGAUGAUCUGAAAGGUGUUUU; result = 0.546 ratio
Strand = UAUUCAUUUGAUUGAAAUCAUUUAGAUAAGAAAUUAUUACUGUUUUCUUUCAAACAGCAUAUCCUAUUUUUCAUCCACUUUGCAAAUACUAGUUUUGUGUGAUUUCUUAACAUCACAAUC; result = 0.647 ratio

Block 2
Target: Interferon regulatory factor 7, full length, phosphomimetic (IRF7, Homo sapiens, UniProt Q92985, residues 1-503, S471D/S472D/S475D/S476D/S477D/S483D/S484D/S487D)
Technique: protein-binding microarray
Molecule type: double-stranded DNA, one strand shown
Medium: in vitro
Tested at: 2200 nM top
Notes: 60-bp whole probe
Added: salmon DNA 0.4 mg/ml
Relative to: random background probes
Direction: higher = stronger binding
Endpoint: fitted relative affinity
Shared flanks, not repeated: GCCTAGCAC … GTCTTGATTCGCTTGACGCTGCTG
Target sequence (chain): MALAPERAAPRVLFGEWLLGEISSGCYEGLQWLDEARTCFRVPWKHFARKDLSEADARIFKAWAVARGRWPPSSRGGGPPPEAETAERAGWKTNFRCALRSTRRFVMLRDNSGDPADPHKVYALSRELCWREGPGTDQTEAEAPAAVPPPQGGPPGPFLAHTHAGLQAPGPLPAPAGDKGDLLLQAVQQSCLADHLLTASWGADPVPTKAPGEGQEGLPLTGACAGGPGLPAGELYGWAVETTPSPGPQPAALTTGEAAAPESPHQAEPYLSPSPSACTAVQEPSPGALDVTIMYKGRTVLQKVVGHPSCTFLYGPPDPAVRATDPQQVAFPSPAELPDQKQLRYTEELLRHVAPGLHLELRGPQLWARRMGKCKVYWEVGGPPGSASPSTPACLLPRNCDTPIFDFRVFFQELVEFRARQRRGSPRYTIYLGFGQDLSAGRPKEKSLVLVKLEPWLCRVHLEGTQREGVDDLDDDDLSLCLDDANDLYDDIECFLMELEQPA
Strand = GACGATTTCGGGTATCGAGAGGTGCTA; result = 2.8 z-score
Strand = AGGACTCGAATCCTGCAGGGGTGCTAG; result = 0.352 z-score
Strand = GACGGACTGCTACTGCTGCCGTGCTAG; result = -0.348 z-score
Strand = TTAGATATGGGGTTTCGATTAGTGCTA; result = 3.01 z-score
Strand = TTAGGTCTCGGTTTCGGATAGTGCTAG; result = 3.92 z-score
Strand = GACCGTTTCGGGTATCGGGACGTGCTA; result = 3.87 z-score
Strand = TTAGGACTGGGACTGGGTTTGTGCTAG; result = -0.732 z-score
Strand = GACGGTTTCCTTCTCCTCACGTGCTAG; result = 3.22 z-score
Strand = GTCGGTCTCGGTATCGGGACGTGCTAG; result = 0.803 z-score

Further values, each from its own experiment
Molecule = PhoQ, residues 284 288 289 292 302 303 GLASVI; target = PhoP, residues 12 14 15 18 19 NHFRA (Escherichia coli, UniProt P23836); test = Sort-seq, measured: YFP reporter; system = E. coli; setting = PhoQ-PhoP variant library, added: 10 µM Mg2+; how to read = relative to: high Mg2+ state, higher = stronger signaling; endpoint = fold induction; result = 1.26
Molecule = STTRRRLFVENDS; target = human cyclin B1; test = cyclin docking binding, deep mutational scanning; system = peptide, yeast cyclin B1-Cln2 system; how to read = direction not given; endpoint = score minus score, wild type; result = 0

For quick reference, copied from above (block 1):
Strand = AUUUCCCGUUUACCCAGUGACACUUUUUACUGAUUUCAUUUCCAUGCAUCUCUUUAAACUUGCCAGUUUUUACCCUCUACUGCACCCUGAAAAGACUGAGGAUGAUCUGAAAGGUGUUUU; result = 0.546 ratio
Strand = UAUUCAUUUGAUUGAAAUCAUUUAGAUAAGAAAUUAUUACUGUUUUCUUUCAAACAGCAUAUCCUAUUUUUCAUCCACUUUGCAAAUACUAGUUUUGUGUGAUUUCUUAACAUCACAAUC; result = 0.647 ratio
